Results pooled from the literature.
Numbered parts are unrelated; each lists some results of a single study. Changes are numbered by the printed parent chain.

Study 1 — target: CCNB1, cyclin fold, Cln2 fusion (human); method: yeast growth competition, sequencing; sample: yeast; notes: strong parent motif; baseline: not given; reading: higher = stronger binding
Starting sequence: viral docking peptide; TSVRRALFTGGSD; partner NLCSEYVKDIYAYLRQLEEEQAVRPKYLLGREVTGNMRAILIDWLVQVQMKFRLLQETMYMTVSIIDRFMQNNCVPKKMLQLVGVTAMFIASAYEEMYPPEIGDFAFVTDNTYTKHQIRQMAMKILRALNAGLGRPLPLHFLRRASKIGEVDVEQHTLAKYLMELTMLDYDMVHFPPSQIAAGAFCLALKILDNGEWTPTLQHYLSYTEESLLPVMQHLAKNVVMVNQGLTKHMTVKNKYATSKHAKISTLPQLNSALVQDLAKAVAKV
Change | normalised enrichment score
R4A | 1.23
R5D | -0.117
S2F | 1.48
T9H | 1.7
R5V | 0.794
S12E | 3.33
S12L | 1.56
T9W | 1.26

Study 2 — observed: binding; method: phage display NGS; form: peptide; concentration: concentration not given; notes: panning round 2; baseline: input library
Target: UDP-N-acetylglucosamine--peptide N-acetylglucosaminyltransferase 110 kDa subunit (OGT, Homo sapiens, UniProt O15294)
Chain of UniProt O15294 (whole entry, looked up): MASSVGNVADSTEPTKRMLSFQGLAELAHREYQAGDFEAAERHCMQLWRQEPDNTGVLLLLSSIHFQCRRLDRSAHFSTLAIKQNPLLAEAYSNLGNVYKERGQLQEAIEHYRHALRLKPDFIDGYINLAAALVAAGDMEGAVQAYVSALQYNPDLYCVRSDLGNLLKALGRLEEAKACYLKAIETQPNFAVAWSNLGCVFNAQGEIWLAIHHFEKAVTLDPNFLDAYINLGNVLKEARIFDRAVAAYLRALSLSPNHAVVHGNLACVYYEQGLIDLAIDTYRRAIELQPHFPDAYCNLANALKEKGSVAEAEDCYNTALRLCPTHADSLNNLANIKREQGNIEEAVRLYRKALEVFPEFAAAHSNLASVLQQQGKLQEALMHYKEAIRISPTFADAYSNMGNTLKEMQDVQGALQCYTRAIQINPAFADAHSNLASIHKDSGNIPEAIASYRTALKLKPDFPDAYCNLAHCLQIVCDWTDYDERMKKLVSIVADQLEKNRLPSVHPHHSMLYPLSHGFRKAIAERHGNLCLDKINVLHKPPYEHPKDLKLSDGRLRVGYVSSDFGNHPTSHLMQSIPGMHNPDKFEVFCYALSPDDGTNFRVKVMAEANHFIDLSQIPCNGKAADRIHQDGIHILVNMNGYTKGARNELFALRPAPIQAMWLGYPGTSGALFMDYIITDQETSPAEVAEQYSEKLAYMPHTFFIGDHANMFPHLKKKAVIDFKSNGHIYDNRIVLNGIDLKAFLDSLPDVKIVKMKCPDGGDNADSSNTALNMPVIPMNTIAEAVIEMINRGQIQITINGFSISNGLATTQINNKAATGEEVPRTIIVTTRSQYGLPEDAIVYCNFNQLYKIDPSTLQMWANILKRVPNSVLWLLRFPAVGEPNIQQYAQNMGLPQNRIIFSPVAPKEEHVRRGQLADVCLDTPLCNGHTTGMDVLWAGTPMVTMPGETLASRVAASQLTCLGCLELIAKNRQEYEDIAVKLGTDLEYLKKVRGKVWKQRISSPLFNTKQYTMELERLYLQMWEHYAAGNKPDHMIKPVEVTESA
Molecule | enrichment fold change
DWSHMRSHNHASFAH | 6.22
HQAHHNMQWFQQDHV | 5.24
QKPMLFLPQYIIVAN | 87
HIHQHIHQEEQWDYH | 5.23
HSFMSYHLHTYHSMP | 7.05
GRFNPVYQMVWEKTV | 12.1
VTTHSHNHHTMEYNV | 6.16
QVFPPEYWIEYNMV | 7.4

Study 3 — target: tungstate, free oxyanion; method: microfluidic competitive inhibition; sample: in vitro, cell-free expressed; concentration: not given; reading: lower = stronger binding
Notes: derived from inhibition constants, unchanged parent 2230 nM
Starting sequence: PafA, mature enzyme, eGFP fusion (Elizabethkingia meningoseptica, UniProt Q9KJX5); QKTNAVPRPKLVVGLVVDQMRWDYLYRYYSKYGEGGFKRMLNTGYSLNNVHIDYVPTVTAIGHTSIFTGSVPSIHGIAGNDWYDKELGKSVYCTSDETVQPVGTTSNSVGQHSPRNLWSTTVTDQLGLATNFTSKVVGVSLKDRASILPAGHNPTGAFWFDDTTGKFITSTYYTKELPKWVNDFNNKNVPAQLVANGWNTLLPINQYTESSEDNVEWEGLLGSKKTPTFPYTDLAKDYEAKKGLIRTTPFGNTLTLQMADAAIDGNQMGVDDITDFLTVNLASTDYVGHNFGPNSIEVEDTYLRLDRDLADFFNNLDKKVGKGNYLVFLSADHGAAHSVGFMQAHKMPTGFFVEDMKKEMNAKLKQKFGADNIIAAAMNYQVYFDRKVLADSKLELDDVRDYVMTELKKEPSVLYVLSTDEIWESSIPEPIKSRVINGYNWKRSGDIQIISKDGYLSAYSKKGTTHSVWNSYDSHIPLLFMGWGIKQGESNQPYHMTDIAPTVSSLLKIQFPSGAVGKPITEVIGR
Change | oxyanion analog dissociation constant
V320A | 1.88 µM
S140G | 2.56 µM
T208V | 2.7 µM
N437V | 1.04 µM
Y383V | 2.28 µM
I52G | 2.66 µM
I296V | 3.21 µM
S392V | 2.58 µM

Other studies, line by line
Structure (SMILES) | target | observed | action | concentration | baseline | quantity | value
N/C(=N\[N+](=O)[O-])N/N=C\c1ccc(-c2cccc([N+](=O)[O-])c2)o1 | Tyrosine-protein kinase Fgr (FGR, Homo sapiens, UniProt P09769) | enzyme activity | inhibitor | 0.5 µM | control | remaining activity | 90.9%

For quick reference, copied from above (study 1):
Change | normalised enrichment score
T9H | 1.7
R5V | 0.794
S12E | 3.33
